{"data": "Published values pooled from the literature", "note": "Lines come from different studies, so protocols differ. ± marks the error that the study gave."}
{"SMILES": "CC[C@H](C)[C@@H]1NC(=O)[C@H](Cc2ccc(O)cc2)NC(=O)[C@@H](N)CSSC[C@@H](C(=O)N2CCC[C@H]2C(=O)N2CCC[C@H]2C(=O)NCC(N)=O)NC(=O)[C@H](CC(N)=O)NC(=O)[C@H](CCC(N)=O)NC1=O", "target or system": "vasopressin V1a receptor, Macaca mulatta", "test": "calcium mobilization, agonist, FLIPR Fluo-3", "test system": "CHO transfected with receptor", "quantity": "EC50", "value": "0.0194 µM"}
{"SMILES": "COc1cc(C(=O)c2[nH]c(N)nc2-c2cccs2)cc(OC)c1OC", "target or system": "tubulin goat", "test": "taxol-induced tubulin polymerization", "conditions": "60 µM, together with: taxol 10 µM", "quantity": "inhibition", "value": "40 ± 8%"}
{"SMILES": "CCCCC/C=C/C(=O)CCc1ccc(O)c(OC)c1", "target or system": "mAb 5-3H1", "test": "antibody binding, indirect competitive ELISA", "conditions": "together with: coating antigen 2-OVA", "quantity": "IC50", "value": "> 4 µg/mL"}
{"SMILES": "[64Cu+2].c1ccc(CNCc2ccc(CN3CCCN4CCNCCCN(CC4)CC3)cc2)nc1", "target or system": "CXCR4", "test system": "NOD/SCID mouse, U87 and U87-stb-CXCR4 xenografts, blood", "conditions": "iv, 60 min, ex vivo", "quantity": "tissue uptake", "value": "2.38 ± 0.2 %ID/g"}
{"SMILES": "COc1cc(CCC(C)=O)ccc1O", "target or system": "mAb 5-3H1", "test": "antibody binding, indirect competitive ELISA", "conditions": "together with: coating antigen 4-OVA", "quantity": "IC50", "value": "> 4 µg/mL"}
{"SMILES": "CC(C)(C)C(=O)Nc1ccc2[nH]c(CN3CCC(N(CCCN4CCOCC4)CC4OC(n5cnc6c(N)ncnc65)C(O)C4O)CC3)nc2c1 (stereo not shown)", "target or system": "human DOT1L R231Q", "test": "inhibitor, western blot, measured: H3K79me2 over histone H3", "test system": "H460 DOT1L R231Q", "conditions": "concentration not given", "how to read": "baseline: cpd over SGC0946", "quantity": "H3K79me2 level ratio", "value": 0.536}
{"SMILES": "CCCC(CCC)C(=O)NO", "target or system": "Lucilia cuprina", "test": "pupation", "test system": "LS strain, larvae on impregnated cotton wool", "conditions": "216 h", "quantity": "IC50", "value": "> 1000 µg"}
{"SMILES": "O=C(/C=C/c1ccccc1)c1ccc(O)cc1", "target or system": "HDAC class I, II and IV (human)", "test": "enzyme activity, inhibitor, fluorometric", "test system": "K562 cell extract", "conditions": "1 h, 37 °C", "quantity": "IC50", "value": "> 1000 µM"}
{"SMILES": "Cc1ccc(NS(=O)(=O)c2cccc(C#N)c2)c2[nH]cc(C#N)c12", "target or system": "human DCAF15-DDB1", "test": "TR-FRET", "conditions": "together with: RBM39 RRM2", "quantity": "affinity increase by DDA1", "value": "~3 fold"}
{"SMILES": "[64Cu+2].c1cnc(CNCc2ccc(CN3CCCN4CCNCCCN(CC4)CC3)cc2)nc1", "target or system": "CXCR4", "test system": "NOD/SCID mouse, U87 and U87-stb-CXCR4 xenografts, bladder", "conditions": "iv, 120 min, ex vivo", "quantity": "tissue uptake", "value": "2.05 ± 0.98 %ID/g"}
{"SMILES": "COc1ccc(NC(=O)[C@H](CCCCN)NC(=O)c2cc(NC(=O)[C@H](CCCCN)NC(=O)c3cc(NC(=O)[C@H](CCCCN)NC(=O)c4cc(NC(=O)[C@@H](N)CCCCN)ccc4OC)ccc3OC)ccc2OC)cc1C(N)=O", "target or system": "antithrombin III-factor Xa", "test": "fondaparinux reversal, amidolytic", "conditions": "pH 8.4, together with: fondaparinux 0.02 µg/mL", "quantity": "EC50", "value": "3.6 µM"}
{"SMILES": "CC1=C(/C=C/C(C)=C/C=C/C(C)=C\\C=O)C(C)(C)CCC1", "target or system": "thyroid hormone receptor, rat", "test": "reporter gene, agonist, luciferase reporter, qHTS", "test system": "GH3.TRE-Luc", "quantity": "EC50", "value": "< 10 µM"}
{"SMILES": "CC(=O)[O-].O.O.O.O.[Mn+2].[O-]c1ccc(Br)cc1C=NCCN1CCOCC1", "target or system": "Chromobacterium violaceum", "conditions": "20 µL of 100 µM per disc", "quantity": "inhibition zone diameter", "value": "17 mm"}
{"SMILES": "CCCn1c(=O)c2[nH]c(-c3ccc(N(C)C(=O)c4ccc(C(F)(F)F)nc4)nc3)nc2n(CCC)c1=O", "target or system": "adenosine receptor, mouse", "test": "antagonist", "test system": "mouse aortic endothelial cells", "conditions": "1 µM, together with: NECA", "quantity": "cAMP level", "value": "inhibited"}
{"SMILES": "COc1ccc(/C=C/C(=O)c2ccccc2)cc1OC", "target or system": "HDAC class I, II and IV (human)", "test": "enzyme activity, inhibitor, fluorometric", "test system": "K562 cell extract", "conditions": "1 h, 37 °C", "quantity": "IC50", "value": "> 1000 µM"}
{"SMILES": "O=C(NO)c1cccc2ccccc12", "target or system": "Lucilia cuprina", "test": "pupation", "test system": "LS strain, larvae on impregnated cotton wool", "conditions": "216 h", "quantity": "IC50", "value": "> 1000 µg"}
{"note": "A few entries again:"}
{"SMILES": "COc1cc(CCC(C)=O)ccc1O", "target or system": "mAb 5-3H1", "test": "antibody binding, indirect competitive ELISA", "conditions": "together with: coating antigen 4-OVA", "quantity": "IC50", "value": "> 4 µg/mL"}
{"SMILES": "CC(C)(C)C(=O)Nc1ccc2[nH]c(CN3CCC(N(CCCN4CCOCC4)CC4OC(n5cnc6c(N)ncnc65)C(O)C4O)CC3)nc2c1 (stereo not shown)", "target or system": "human DOT1L R231Q", "test": "inhibitor, western blot, measured: H3K79me2 over histone H3", "test system": "H460 DOT1L R231Q", "conditions": "concentration not given", "how to read": "baseline: cpd over SGC0946", "quantity": "H3K79me2 level ratio", "value": 0.536}
